Published values from different studies.
Compare with care: the assays were run in different laboratories. “And” joins repeats or separate records; there may be more than shown. Numbers after ± are the reported error.
Protein AF-9 with DOT1L: Protein AF-9, with DOT1L (Homo sapiens, UniProt P42568)
UniProt P42568, sequence (whole entry, looked up): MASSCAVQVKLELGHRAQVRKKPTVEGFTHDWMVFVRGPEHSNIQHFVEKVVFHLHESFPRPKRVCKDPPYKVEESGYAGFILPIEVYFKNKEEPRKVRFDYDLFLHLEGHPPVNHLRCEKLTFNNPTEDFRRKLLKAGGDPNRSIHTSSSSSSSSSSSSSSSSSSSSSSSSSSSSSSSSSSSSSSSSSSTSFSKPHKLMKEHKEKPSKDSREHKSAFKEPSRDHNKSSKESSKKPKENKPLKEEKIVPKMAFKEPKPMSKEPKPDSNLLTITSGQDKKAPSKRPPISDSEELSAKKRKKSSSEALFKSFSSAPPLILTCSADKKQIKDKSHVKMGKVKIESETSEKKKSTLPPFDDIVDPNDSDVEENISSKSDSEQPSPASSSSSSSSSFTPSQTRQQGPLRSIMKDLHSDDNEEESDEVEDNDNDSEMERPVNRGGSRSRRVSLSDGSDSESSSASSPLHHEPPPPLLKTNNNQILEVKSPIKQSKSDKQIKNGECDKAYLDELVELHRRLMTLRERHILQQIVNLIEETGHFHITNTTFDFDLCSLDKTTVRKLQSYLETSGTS
CSNK1D: Casein kinase I isoform delta (CSNK1D, Homo sapiens, UniProt P48730)
UniProt P48730, sequence (whole entry, looked up): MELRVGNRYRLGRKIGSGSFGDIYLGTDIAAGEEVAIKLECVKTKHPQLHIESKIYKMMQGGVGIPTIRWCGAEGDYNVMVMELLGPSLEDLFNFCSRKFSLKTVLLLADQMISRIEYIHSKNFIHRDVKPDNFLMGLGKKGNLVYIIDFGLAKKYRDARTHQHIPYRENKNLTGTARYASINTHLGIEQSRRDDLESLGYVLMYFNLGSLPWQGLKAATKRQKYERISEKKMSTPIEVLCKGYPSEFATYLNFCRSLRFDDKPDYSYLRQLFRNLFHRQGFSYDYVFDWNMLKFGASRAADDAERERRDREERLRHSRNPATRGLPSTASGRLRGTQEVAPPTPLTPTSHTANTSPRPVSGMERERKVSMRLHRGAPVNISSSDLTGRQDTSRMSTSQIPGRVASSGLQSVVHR
A-type voltage-gated potassium channel KCND2: A-type voltage-gated potassium channel KCND2 (Rattus norvegicus, UniProt Q63881)
UniProt Q63881, sequence (whole entry, looked up): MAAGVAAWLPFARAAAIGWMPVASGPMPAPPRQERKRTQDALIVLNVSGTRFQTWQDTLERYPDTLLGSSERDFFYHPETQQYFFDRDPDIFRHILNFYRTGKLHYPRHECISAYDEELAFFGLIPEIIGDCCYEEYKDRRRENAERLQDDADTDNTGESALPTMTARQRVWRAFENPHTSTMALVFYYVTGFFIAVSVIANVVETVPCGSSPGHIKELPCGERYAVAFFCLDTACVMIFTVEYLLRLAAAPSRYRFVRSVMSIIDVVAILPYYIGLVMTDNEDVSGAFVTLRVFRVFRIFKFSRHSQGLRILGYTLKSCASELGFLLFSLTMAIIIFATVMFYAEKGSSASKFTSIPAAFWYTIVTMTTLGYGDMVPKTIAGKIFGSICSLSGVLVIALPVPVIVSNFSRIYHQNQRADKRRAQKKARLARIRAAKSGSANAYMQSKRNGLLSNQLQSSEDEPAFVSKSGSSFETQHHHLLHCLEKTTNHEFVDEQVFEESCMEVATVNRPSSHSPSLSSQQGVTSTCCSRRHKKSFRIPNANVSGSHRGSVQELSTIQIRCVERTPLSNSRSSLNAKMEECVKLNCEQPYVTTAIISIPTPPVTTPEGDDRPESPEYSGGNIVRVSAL
CD274: Programmed cell death 1 ligand 1 (CD274, Homo sapiens, UniProt Q9NZQ7)
UniProt Q9NZQ7, sequence (whole entry, looked up): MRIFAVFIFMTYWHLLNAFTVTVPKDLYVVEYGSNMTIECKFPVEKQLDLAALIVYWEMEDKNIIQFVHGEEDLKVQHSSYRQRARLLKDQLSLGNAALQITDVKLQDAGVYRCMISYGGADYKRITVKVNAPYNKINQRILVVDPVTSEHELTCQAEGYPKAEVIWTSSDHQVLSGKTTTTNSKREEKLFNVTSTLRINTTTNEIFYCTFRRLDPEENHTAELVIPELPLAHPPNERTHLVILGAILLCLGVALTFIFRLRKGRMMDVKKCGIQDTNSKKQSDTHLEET
ADRA1B: Alpha-1B adrenergic receptor (ADRA1B, Homo sapiens, UniProt P35368)
UniProt P35368, sequence (whole entry, looked up): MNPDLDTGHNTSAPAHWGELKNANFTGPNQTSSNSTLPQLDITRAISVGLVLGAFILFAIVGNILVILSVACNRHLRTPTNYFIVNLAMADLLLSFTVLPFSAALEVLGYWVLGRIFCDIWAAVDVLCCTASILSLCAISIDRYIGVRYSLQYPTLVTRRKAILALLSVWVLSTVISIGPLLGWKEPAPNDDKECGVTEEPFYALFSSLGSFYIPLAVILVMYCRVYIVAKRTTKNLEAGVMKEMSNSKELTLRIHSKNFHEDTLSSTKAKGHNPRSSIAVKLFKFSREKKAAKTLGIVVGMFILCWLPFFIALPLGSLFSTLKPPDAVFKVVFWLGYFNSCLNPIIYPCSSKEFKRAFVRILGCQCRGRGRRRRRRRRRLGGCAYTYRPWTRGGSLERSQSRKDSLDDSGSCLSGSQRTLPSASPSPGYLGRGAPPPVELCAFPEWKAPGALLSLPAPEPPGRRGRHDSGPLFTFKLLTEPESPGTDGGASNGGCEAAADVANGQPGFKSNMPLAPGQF
BRD9: Bromodomain-containing protein 9 (BRD9, Homo sapiens, UniProt Q9H8M2)
UniProt Q9H8M2, sequence (whole entry, looked up): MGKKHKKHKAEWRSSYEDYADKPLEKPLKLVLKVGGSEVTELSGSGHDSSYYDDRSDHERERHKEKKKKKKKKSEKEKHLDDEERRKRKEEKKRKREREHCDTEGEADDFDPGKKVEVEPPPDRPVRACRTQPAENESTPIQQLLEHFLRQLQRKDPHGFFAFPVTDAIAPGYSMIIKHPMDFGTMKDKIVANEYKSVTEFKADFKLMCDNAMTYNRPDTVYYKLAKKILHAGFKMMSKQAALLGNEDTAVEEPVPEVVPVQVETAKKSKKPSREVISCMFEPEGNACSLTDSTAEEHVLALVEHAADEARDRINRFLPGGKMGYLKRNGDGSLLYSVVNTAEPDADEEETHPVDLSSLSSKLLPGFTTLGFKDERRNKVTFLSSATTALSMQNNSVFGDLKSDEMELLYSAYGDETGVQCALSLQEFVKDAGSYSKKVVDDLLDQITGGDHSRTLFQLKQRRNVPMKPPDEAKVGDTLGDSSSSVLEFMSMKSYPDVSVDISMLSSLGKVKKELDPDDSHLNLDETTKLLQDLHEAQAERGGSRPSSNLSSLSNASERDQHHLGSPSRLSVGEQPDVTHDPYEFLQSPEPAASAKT
SIRT3: NAD-dependent protein deacetylase sirtuin-3, mitochondrial (SIRT3, Homo sapiens, UniProt Q9NTG7)
UniProt P51575, sequence (whole entry, unmodified, looked up): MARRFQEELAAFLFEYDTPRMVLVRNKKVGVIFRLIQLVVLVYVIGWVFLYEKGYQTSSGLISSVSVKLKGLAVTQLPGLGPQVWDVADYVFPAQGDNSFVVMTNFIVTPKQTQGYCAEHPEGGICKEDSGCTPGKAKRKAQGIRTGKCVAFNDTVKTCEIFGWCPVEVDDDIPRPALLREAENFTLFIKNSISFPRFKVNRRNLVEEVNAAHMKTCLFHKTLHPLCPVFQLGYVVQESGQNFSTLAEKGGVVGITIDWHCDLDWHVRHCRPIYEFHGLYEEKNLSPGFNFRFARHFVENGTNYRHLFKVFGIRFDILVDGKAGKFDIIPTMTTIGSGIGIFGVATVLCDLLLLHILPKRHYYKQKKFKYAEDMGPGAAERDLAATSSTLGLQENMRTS
UniProt Q16853, sequence (whole entry, looked up): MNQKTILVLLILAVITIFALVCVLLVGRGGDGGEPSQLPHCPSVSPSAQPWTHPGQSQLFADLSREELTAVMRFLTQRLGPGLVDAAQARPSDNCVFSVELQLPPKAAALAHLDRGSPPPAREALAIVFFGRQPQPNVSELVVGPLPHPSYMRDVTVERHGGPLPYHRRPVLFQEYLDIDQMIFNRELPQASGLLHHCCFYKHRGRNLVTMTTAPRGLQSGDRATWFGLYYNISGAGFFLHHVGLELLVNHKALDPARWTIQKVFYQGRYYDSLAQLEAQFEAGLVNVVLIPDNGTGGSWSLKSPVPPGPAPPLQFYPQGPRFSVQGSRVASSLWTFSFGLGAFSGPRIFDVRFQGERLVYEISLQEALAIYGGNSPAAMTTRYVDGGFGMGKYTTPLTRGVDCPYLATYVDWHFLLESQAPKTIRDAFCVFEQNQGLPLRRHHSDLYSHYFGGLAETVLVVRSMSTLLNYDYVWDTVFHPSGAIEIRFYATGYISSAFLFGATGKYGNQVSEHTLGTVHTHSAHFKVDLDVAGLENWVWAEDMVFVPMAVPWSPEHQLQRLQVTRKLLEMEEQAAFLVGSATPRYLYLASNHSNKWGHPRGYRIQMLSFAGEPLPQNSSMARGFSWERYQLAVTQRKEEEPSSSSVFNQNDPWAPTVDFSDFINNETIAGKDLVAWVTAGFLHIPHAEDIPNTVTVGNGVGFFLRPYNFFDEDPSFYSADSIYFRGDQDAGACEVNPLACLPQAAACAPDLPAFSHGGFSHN
UniProt Q9NTG7, sequence (whole entry, looked up): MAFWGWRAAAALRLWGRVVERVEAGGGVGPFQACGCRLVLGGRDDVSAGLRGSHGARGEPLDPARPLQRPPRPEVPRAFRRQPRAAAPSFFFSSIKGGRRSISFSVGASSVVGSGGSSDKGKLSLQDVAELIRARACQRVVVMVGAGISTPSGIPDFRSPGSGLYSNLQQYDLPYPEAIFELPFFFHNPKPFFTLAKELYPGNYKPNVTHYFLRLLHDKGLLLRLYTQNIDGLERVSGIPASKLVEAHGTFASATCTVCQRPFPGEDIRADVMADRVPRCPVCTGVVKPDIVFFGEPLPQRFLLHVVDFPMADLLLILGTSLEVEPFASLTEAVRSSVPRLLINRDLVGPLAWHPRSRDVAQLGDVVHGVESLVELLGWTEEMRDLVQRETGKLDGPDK
UniProt Q8TDV5, sequence (whole entry, looked up): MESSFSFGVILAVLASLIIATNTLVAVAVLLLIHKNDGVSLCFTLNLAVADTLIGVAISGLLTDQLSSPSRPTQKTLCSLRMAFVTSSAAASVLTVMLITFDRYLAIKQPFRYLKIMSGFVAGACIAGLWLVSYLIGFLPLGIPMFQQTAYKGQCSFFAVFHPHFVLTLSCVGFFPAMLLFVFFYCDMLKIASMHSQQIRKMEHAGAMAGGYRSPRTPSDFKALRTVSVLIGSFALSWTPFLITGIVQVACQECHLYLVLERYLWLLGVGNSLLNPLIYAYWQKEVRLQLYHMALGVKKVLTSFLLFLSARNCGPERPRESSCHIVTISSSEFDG

| SMILES | tested on | assay | system | conditions | scale | quantity | value |
| --- | --- | --- | --- | --- | --- | --- | --- |
| N#Cc1ccc(-c2ccc3ncc(OCC4CCNCC4)nc3c2)cc1F | Protein AF-9 with DOT1L | DOT1L binding, AlphaLISA |  | 10 µM |  | inhibition | 10 to 30% |
| CCc1oc2ccccc2c1C(=O)c1cc(Br)c(O)c(Br)c1 | SLC22A12 (Homo sapiens, UniProt Q96S37, Y152F) | uric acid uptake | HEK293T transfected with SLC22A12 Y152F | 0.5 µM, 10 min, 37 °C, mean, together with: [14C]urate 200 µM |  | inhibition | 86.4% |
| [2H]c1cc(C)c(NC(=O)c2cnc(Nc3cc(N4CCCCC4)nc(C)n3)s2)c(Cl)c1 | RET (Homo sapiens, UniProt P07949, G691S) |  |  | 0.01 µM |  | inhibition | < 30% |
| Ic1cccc2cnccc12 | phorbol ester binding site (mouse) | radioligand binding, inhibitor |  | 10 µM |  | inhibition | -5% |
| COc1cc(C(=O)NS(=O)(=O)c2ccccc2C)ccc1Cc1cn(C)c2ccc(NC(=O)OC3CCCC3)cc12 | Volume-regulated anion channel subunit LRRC8C, part LRRC8A IL1 chimera (LRRC8C, Homo sapiens, UniProt Q8TDW0, L105R) | ion current, inhibitor, whole-cell patch clamp | HCT LRRC8-/- cells | 3 µM, +100 mV |  | inhibition | 11% and 6.19% and 30.2% and 12.7% and 21% and 11.2% |
| Cn1cc(-c2cnc3ccc(NC(=O)Nc4ccc(F)c(Br)c4)cc3n2)cn1 | MAP3K1 (Homo sapiens, UniProt Q13233) | kinase binding, KiNativ profiling, measured: Lys2 peptide | PANC-1 lysate | 10 µM |  | inhibition | 67.6% |
| Cc1cccc(-c2nc(-c3ccc(C#N)cc3)[nH]c2-c2ccncc2)c1 | CSNK1D | kinase activity |  | 1 µM |  | inhibition | 11% |
| C=CC(=O)Nc1cc(Nc2nccc(Nc3cc(Cl)c(F)cc3C(C)(C)O)n2)c(OC)cc1N1CC[C@@H](N(C)C)C1 | CaMKII, human | kinase activity |  | 1 µM |  | inhibition | 9% |
| O=C(NO)c1cccc(C(=O)NCCc2ccccc2)c1 | HBL-1 |  |  | 0.5 µM, 120 h |  | viability | 118% |
| Cc1ccc(C(=O)Nc2ccc3ccccc3c2)o1 | A-type voltage-gated potassium channel KCND2 | ion current, inhibitor, whole-cell patch clamp |  | 10 µM |  | inhibition | 8.2% and 0.8% and 7.7% and 14.5% and 4.4% |
| COc1ccc(C(=O)/C=C/c2cccc(-c3cccc(-c4ccc(CNCc5c(C)cc(C)[nH]c5=O)c(OC)n4)c3C)c2)cc1 | CD274 | binding, inhibitor, HTRF |  | 1 µM |  | inhibition | 12.4 ± 2.4% |
| O=C(Nc1ccc(OCc2ccccc2)cc1)Nc1ccc2ncc(OCC3CCNCC3)nc2c1 | Protein AF-9 with DOT1L | DOT1L binding, AlphaLISA |  | 10 µM |  | inhibition | 42% |
| CCS(=O)(=O)c1nc(S(=O)(=O)c2ccccc2Cl)c(N2CCN(C)C(=O)[C@H]2C)s1 | ADRA1B |  |  | 10 µM |  | inhibition | 5.06% |
| NCc1ccccc1 | Secernin-3 (Homo sapiens, UniProt Q0VDG4) | probe labelling, inhibitor, competitive ABPP | HEK-293T cell lysate | up to 300 µM |  | inhibition | no inhibition |
| Cc1c(COc2ccc(CN3CCCCC3C(=O)NCCCCNC(=O)CN(C)CCCC34CCC(c5ccccc53)c3ccccc34)cc2Br)cccc1-c1ccccc1 (stereo not drawn) | CD274 | binding, inhibitor, HTRF |  | 1 µM |  | inhibition | 13.8 ± 1.6% |
| CC(C)(C)NC(=O)C[C@H](NC(=O)C(=O)c1c[nH]c2ccccc12)C(=O)NCc1cccc(B(O)O)c1 | Proteasome component C5/PSMB5 (Homo sapiens, UniProt P20618+P28074) | β5 proteasome activity, inhibitor | HepG2 | concentration not given |  | inhibition | inhibited |
| CC(/C=C/C(=O)NO)=C\[C@@H](C)C(=O)c1ccc(N(C)C)cc1 | HBL-1 |  |  | 0.5 µM, 120 h |  | viability | 0.843% |
| C=CCOc1ccc(/C=C/C(=O)OCC(=O)Nc2cc(C(=O)OC)ccc2C(=O)OC)cc1 | uncharacterized protein (Erigeron canadensis, UniProt A0A8M0FGR5) | enzyme activity |  | 100 mg/L |  | inhibition | > 30% |
| O=C(Nc1cccc2c(=O)cc(-c3nnn[nH]3)oc12)c1ccc(OCCCCc2ccccc2)cc1 | Volume-regulated anion channel subunit LRRC8C, part LRRC8A IL1 chimera (LRRC8C, Homo sapiens, UniProt Q8TDW0, E6A) | ion current, inhibitor, whole-cell patch clamp | HCT LRRC8-/- cells | 10 µM, +100 mV |  | inhibition | 91.5% and 97.4% and 96.8% and 94.2% |
| CC(C)(C)c1ccc(-c2ccc3ncc(OCC4CCNCC4)nc3c2)cc1 | Protein AF-9 with DOT1L | DOT1L binding, AlphaLISA |  | 10 µM |  | inhibition | 9 to 18% |
| CC(C)c1noc2ncc(C(=O)c3ccccc3O)cc12 | A-type voltage-gated potassium channel KCND2 | ion current, inhibitor, whole-cell patch clamp |  | 10 µM |  | inhibition | 7.97% and 8.92% and 20.3% and 21.5% and 13% |
| COc1ccc(C(=O)/C=C/c2cccc(-c3cccc(-c4ccc(CNCCN)c(OC)n4)c3C)c2)cc1 | CD274 | binding, inhibitor, HTRF |  | 1 µM |  | inhibition | 6 ± 0.8% |
| CCN(Cc1ccccc1C(F)(F)F)C(=O)C1CCN(S(=O)(=O)c2ccc3[nH]ncc3c2)CC1 | rat rolipram binding site | radioligand binding |  | 10 µM, together with: rolipram |  | inhibition | 4% |
| Cc1cccc(-c2nc(-c3ccc(NS(C)(=O)=O)cc3)[nH]c2-c2ccncc2)c1 | CSNK1D | kinase activity |  | 1 µM |  | inhibition | 13% |

| SMILES | tested on | assay | system | conditions | scale | quantity | value |
| --- | --- | --- | --- | --- | --- | --- | --- |
| COC(=O)c1c(OC)cc(-c2cc(C(C)=O)n3ccccc23)cc1OC | BRD9 | AlphaScreen |  | 1 µM |  | inhibition | 95.1% |
| CCOCCOCCOCCNC(=S)NCCCC[C@H](NS(C)(=O)=O)C(=O)N[C@H](C)C(=O)N[C@@H](CCCNC(=N)N)C(N)=O | SIRT3 | enzyme activity, inhibitor |  | 10 µM |  | inhibition | < 5% |
| CC[C@@H]1[C@H](F)C(=O)N[C@@H]1COc1nccc2cc(C(N)=O)c(OC)cc12 | PI4KB (Homo sapiens, UniProt Q9UBF8) | ATP-site probe binding, ActivX profiling | THP-1 cell lysate | 0.04 mM |  | inhibition | -0.342% |
| COc1cc2nccc(Oc3ccc(NC(=O)c4cc5c(n(-c6ccccc6)c4=O)CCCC5=O)nc3)c2cc1OC | AXL (Homo sapiens, UniProt P30530) | plasma inhibitory activity | human patients | 3 mg/day |  | inhibition | 70 to 100% |
| NC/C(=C\F)COc1cccc(Cn2c(=S)[nH]c(=O)c3[nH]cnc32)c1 | AOC3 (Homo sapiens, UniProt Q16853) | H2O2 production, Amplex Red |  | 3 µM, recombinant human enzyme |  | inhibition | 100% |
| Nc1cccc(-c2ccc3ncc(OCC4CCNCC4)nc3c2)c1 | Protein AF-9 with DOT1L | DOT1L binding, AlphaLISA |  | 10 µM |  | inhibition | 10 to 30% |
| CC[C@]12CCCN3CCc4c([nH]c5ccccc45)[C@]31N(Cc1cn(Cc3ccccc3)nn1)C(=O)C2 | GPR119 (Homo sapiens, UniProt Q8TDV5) | beta-arrestin recruitment, antagonist, PathHunter chemiluminescence |  | 20 µM, together with: agonist at EC80 |  | inhibition | 30% |
| COc1cc(OC)cc(Oc2ccc3ncc(OCC4CCNCC4)nc3c2)c1 | Protein AF-9 with DOT1L | DOT1L binding, AlphaLISA |  | 10 µM |  | inhibition | 2 to 16% |
| COc1cc(-c2cc(C(C)=O)n3ccccc23)cc(OC)c1C(=O)N(C)C | BRD9 | AlphaScreen |  | 1 µM |  | inhibition | 95.6% |
| O=c1c(OS(=O)(=O)[O-])c(-c2ccc(OS(=O)(=O)[O-])c(OS(=O)(=O)[O-])c2)oc2cc(OS(=O)(=O)[O-])cc(OCc3ccc(COc4cc(OS(=O)(=O)[O-])cc5oc(-c6ccc(OS(=O)(=O)[O-])c(OS(=O)(=O)[O-])c6)c(OS(=O)(=O)[O-])c(=O)c45)cc3)c12.[Na+].[Na+].[Na+].[Na+].[Na+].[Na+].[Na+].[Na+] | Neutrophil elastase (ELANE, Homo sapiens, UniProt P08246) | elastin cleavage, elastin-Congo red |  | concentration not given, pH 8, 37 °C |  | inhibition | 60 to 70% |
| O=C(NC1CCC1)[C@H](Cc1c[nH]c2ccccc12)NC(=O)[C@H](CCCCNC(=S)NCCc1nnn[nH]1)NS(=O)(=O)c1cccc(F)c1 | SIRT3 | deacylase activity |  | 10 µM, together with: NAD+ 500 µM |  | inhibition | < 0% |
| CN1CCN(c2cc(-c3ccncc3)c(-c3ccc4ccccc4c3)nn2)CC1 | PTGER2 (Homo sapiens, UniProt P43116) | antagonist, FLIPR |  | 10 µM |  | inhibition | -8.4% |
| COc1ccc(C(=O)/C=C/c2cccc(-c3cccc(-c4ccc(CN[C@@H](CO)C(N)=O)c(OC)n4)c3C)c2)cc1 | CD274 | binding, inhibitor, HTRF |  | 1 µM |  | inhibition | 7.7 ± 2.6% |
| Cc1nn(-c2cccc([N+](=O)[O-])c2)c(=O)c2nocc12 | GABAA receptor | binding, radioligand displacement |  | concentration not given, together with: muscimol radioligand |  | inhibition | -15.5% |
| COc1ccc(OC)c(-c2cc(C(C)=O)n3ccccc23)c1 | BRD9 | binding, inhibitor, AlphaScreen |  | 1 µM |  | inhibition | 92.2% |
| O=C(NO)c1ccc(CN2CCCCc3ccccc32)c(F)c1 | ADRA1B | radioligand binding, radioligand displacement |  | 10 µM, mean of replicates |  | inhibition | 5.71% |
| CCC(=O)c1cc(-c2cc(OC)c(Cn3ccnc3)cc2OC)c2ccccn12 | BRD9 | AlphaScreen |  | 1 µM |  | inhibition | 90.7% |
| FC(F)(F)c1cccc(Nc2ccc3ncc(OCC4CCNCC4)nc3c2)c1 | Protein AF-9 with DOT1L | DOT1L binding, AlphaLISA |  | 10 µM |  | inhibition | 19 to 40% |
| CC(=O)c1cc(-c2ccccc2Cl)c2ccccn12 | BRD9 | AlphaScreen |  | 1 µM |  | inhibition | 13% |
| c1cc(C2CCCCC2)ccc1Nc1ccc2ncc(OCC3CCNCC3)nc2c1 | Protein AF-9 with DOT1L | DOT1L binding, AlphaLISA |  | 10 µM |  | inhibition | 49% |
| COc1cc(C(C)O)c(OC)cc1-c1cc(C(C)=O)n2ccccc12 (stereo not drawn) | BRD9 | AlphaScreen |  | 1 µM |  | inhibition | 93.9% |
| Cc1ccccc1-c1ccc([C@H]2[C@H](CO)N3C(=O)CN(C(=O)c4cccnc4)C[C@@H]23)cc1 | IDE (Homo sapiens, UniProt P14735) | enzyme activity, inhibitor, fluorogenic kinetic |  | together with: Mca-RPPGFSAFK(Dnp)-OH substrate |  | EC50 | 6.1 µM |
| COc1cc(-c2cc(C(C)=O)n3ccccc23)cc(OC)c1Cn1ccnc1 | PHIP, BD2 (Homo sapiens, UniProt Q8WWQ0) |  |  | 1 µM |  | inhibition | -16.4% |
| Nc1ncnc2c1ncn2[C@@H]1O[C@H](COP(=O)(O)CP(=O)(O)OP(=O)(O)O)[C@@H](O)[C@H]1O | P2X purinoceptor 1 (P2RX1, Homo sapiens, UniProt P51575, R139A) | calcium influx |  | 3.16 µM | baseline: ionomycin response | calcium influx | 97% and 96.3% and 98.8% |

A few entries again:
| SMILES | tested on | assay | system | conditions | scale | quantity | value |
| --- | --- | --- | --- | --- | --- | --- | --- |
| Nc1cccc(-c2ccc3ncc(OCC4CCNCC4)nc3c2)c1 | Protein AF-9 with DOT1L | DOT1L binding, AlphaLISA |  | 10 µM |  | inhibition | 10 to 30% |
| O=C(NO)c1cccc(C(=O)NCCc2ccccc2)c1 | HBL-1 |  |  | 0.5 µM, 120 h |  | viability | 118% |
| c1cc(C2CCCCC2)ccc1Nc1ccc2ncc(OCC3CCNCC3)nc2c1 | Protein AF-9 with DOT1L | DOT1L binding, AlphaLISA |  | 10 µM |  | inhibition | 49% |
| C=CCOc1ccc(/C=C/C(=O)OCC(=O)Nc2cc(C(=O)OC)ccc2C(=O)OC)cc1 | uncharacterized protein (Erigeron canadensis, UniProt A0A8M0FGR5) | enzyme activity |  | 100 mg/L |  | inhibition | > 30% |
| COc1cc(C(=O)NS(=O)(=O)c2ccccc2C)ccc1Cc1cn(C)c2ccc(NC(=O)OC3CCCC3)cc12 | Volume-regulated anion channel subunit LRRC8C, part LRRC8A IL1 chimera (LRRC8C, Homo sapiens, UniProt Q8TDW0, L105R) | ion current, inhibitor, whole-cell patch clamp | HCT LRRC8-/- cells | 3 µM, +100 mV |  | inhibition | 11% and 6.19% and 30.2% and 12.7% and 21% and 11.2% |
| COc1cc2nccc(Oc3ccc(NC(=O)c4cc5c(n(-c6ccccc6)c4=O)CCCC5=O)nc3)c2cc1OC | AXL (Homo sapiens, UniProt P30530) | plasma inhibitory activity | human patients | 3 mg/day |  | inhibition | 70 to 100% |
